Assay results of several laboratories.
Every numbered part comes from another study and shows a few of its results, in no order.

Set 1 — technique: protein-binding microarray; molecule type: double-stranded DNA, one strand shown; matrix: in vitro; tested at: not given; direction: higher = stronger binding
Target: Protein max, full length (MAX, Homo sapiens, UniProt P61244-2, residues 1-151)
Notes: k-mer, scored over probes, only values ≥0.25
Oligonucleotide | E-score
CGCGGTCA | 0.276
ACGCGGCG | 0.363
ATAGCACG | 0.387
ACCATGCA | 0.366
GGCATGAC | 0.315
CGGGACAC | 0.292
CATGCTAC | 0.4
CATGGTTA | 0.293
ACATGTAG | 0.309
ATCATGAG | 0.253
ACGCGACT | 0.295
ATAACCAC | 0.292
CCACGGGC | 0.255
CGTGTATA | 0.277
GCATGTGA | 0.471
CCGCATGA | 0.412
ATGAGGTC | 0.28
AGCAGCAT | 0.27
ATGGTGTG | 0.253
ACCCGTGA | 0.257
AACCCATG | 0.307
ATGCGGAG | 0.259

Set 2 — technique: protein binding microarray; molecule type: double-stranded DNA, one strand shown; matrix: in vitro; tested at: not given; baseline: not given; direction: higher = stronger binding
Target: Histone acetyltransferase KAT6A, both winged helices, GST fusion (KAT6A, Homo sapiens, UniProt Q92794, residues 1-181)
Notes: 8-mer, flanks averaged, mean of 2 arrays, mostly near background
Target sequence (chain): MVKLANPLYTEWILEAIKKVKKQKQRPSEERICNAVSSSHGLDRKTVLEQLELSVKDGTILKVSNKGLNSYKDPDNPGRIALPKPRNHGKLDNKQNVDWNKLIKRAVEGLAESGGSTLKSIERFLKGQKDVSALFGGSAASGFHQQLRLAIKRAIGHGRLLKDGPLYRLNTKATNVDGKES
Oligonucleotide | E-score
ACATCAAA | -0.206
ACCACGGC | 0.176
AAGGTTGA | -0.0442
AAGTACCC | -0.0617
GGTGTCGA | 0.0262
AAGACACA | -0.142
CTTTTGCA | -0.0641
AAGCGCTA | 0.291
TATGTTAA | -0.0277
CCGTGGTC | 0.109
AACCCTAC | -0.193
ACGCGGGC | 0.245
ATAAAGCG | 0.176
ACAGAGTG | -0.171
AATGGCCT | -0.146
GGTATTAA | 0.0185
TAACAGAA | -0.116
TTAGTCAA | -0.0408
CCATTCTC | -0.249
ATCACAAG | -0.0528
AAATCAGA | -0.0943

Set 3 — technique: RNA Bind-n-Seq; molecule type: RNA; matrix: in vitro; tested at: 365 nM; baseline: no-protein control; direction: higher = stronger binding
Target: RNA binding protein fox-1 homolog 2, RRM domain, GST-SBP tag (RBFOX2, Homo sapiens, UniProt O43251-10, residues 100-194)
Notes: natural RNA segment, single round, ends assumed
All sequences stand within: GGGAGUUCUACAGUCCGACGAUC … UGGAAUUCUCGGGUGCCAA
Target sequence (chain): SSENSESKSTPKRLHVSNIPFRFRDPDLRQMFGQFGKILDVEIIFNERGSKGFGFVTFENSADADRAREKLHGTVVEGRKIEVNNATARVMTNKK
Oligonucleotide | RBNS enrichment (R)
GUCCAUUCCAUUGCUUGUUUCUCAAAGCAGCGAGAUACCUGUCUGAGCUGCAGGAGGCAGGGGCAGCCGGGACAUGGGCACUUCAGGGCCGAGCCUCUGUGUUGCCUUCU | 0.525
AAAAGCGCUCAAGUUCAUGCUGACCAAUCUCAAGUGGGGUCUUGCCUGGGUGUCCUCACAGUUCUAUAACAAGUGACUUGCUCCUUAGGGGAUGUUUGCCUUUAAGGUUU | 1.62
UUUAUUUAUUUGUGUUUAUAUAUGUCAAUUGGUUUCCUUUCUUAGCUUGAUAUUGCCUAGCUUUGUUGUUUUAAUUAACUUUCUAUUAGAGAGACUGUAUAUAUUUUUUC | 2.71
GGACUAUGCCCUGACCCCUCCUUUCUGAAAAUCAGUGCCCUCCCUGUUGCUCUAGGAGGCUCCUGCUGGCUUGGUAGAAGACAGAAUUCGAUCUGCCUGUCCCUUUUUCC | 0.448
UAGCUAGGUGAUAGACAUUUUCAAAAAUUGCCUGACUGGCCAAGUUACAAGGAUGCCUCUCCACACUUGUCCUCUCUACCCACCUACGCUGGAAAUCCAGUUCUUCAGGA | 0.261
UCCCACCCCACCCCGUUUUUUGUCCCUCCGUUUGAUCACCUCCCUGUUGAGUAUGGAAUGUCCCAGUUUAAUAUAAAACAUACAGUUUAUUCCACACAGCAGUUUGACUU | 0.845
CAGUACGUUCUCAGGAUGCAUCCAGGGGUUCAUUUUCAUGAGCCUGUCCAGGUUAGUUUACUCCUGACCACUAAUAGCAUUGUCAUUUGGGCUUUCUGUUGAAUGAAUCA | 0.364
GUCCCAACAGGAGUCAGGAAGAGGUUUGAUUAUAACCAAGAAAACUCACUAUGCUAGGAAUAGACUGUGUGCACCAGUCCCAGACACUUGGCAGAAGUGUAGCAGCGUUA | 0.537

Set 4 — technique: RNA Bind-n-Seq; molecule type: RNA; matrix: in vitro; tested at: 200 nM; notes: whole 134-nt RNA, ends assumed; added: 150 mM KCl; baseline: input library; direction: higher = stronger binding
Target: Ras GTPase-activating protein-binding protein 1, full length (G3BP1, Homo sapiens, UniProt Q13283)
Sequence of UniProt Q13283 (whole entry, looked up): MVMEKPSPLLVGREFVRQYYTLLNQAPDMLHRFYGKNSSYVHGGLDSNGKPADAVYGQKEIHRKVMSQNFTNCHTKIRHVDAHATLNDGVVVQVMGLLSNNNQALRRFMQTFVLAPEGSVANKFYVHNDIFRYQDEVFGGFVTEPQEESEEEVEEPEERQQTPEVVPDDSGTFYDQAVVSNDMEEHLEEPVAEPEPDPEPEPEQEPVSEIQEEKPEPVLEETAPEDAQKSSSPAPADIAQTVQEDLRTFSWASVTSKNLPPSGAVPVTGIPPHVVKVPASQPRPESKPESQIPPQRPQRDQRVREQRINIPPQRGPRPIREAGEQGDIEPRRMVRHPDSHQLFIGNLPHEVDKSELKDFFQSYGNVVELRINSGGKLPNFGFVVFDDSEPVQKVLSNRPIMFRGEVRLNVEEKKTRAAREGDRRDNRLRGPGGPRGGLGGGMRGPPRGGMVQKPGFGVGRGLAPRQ
All sequences stand within: GGGAGUUCUACAGUCCGACGAUC … UGGAAUUCUCGGGUGUCAAGG
Oligonucleotide | log2 enrichment
UCAAGUCCUGUGCUACACAUCGUAUGUACCGAAUCGGGUUUGGGUUUGGGUGGGAAAGUAUUAUGUUACGCCGUUCGGAUCUGCACUUCC | 0.99
UGGCCCUGGUGGCAUGAGGGGAGGAAGAGGUGGCCUCAUGGAUCGUGGUGGUCCCGGUGGAAUGUUCAGAGGUGGCCGUGGUGGAGACAG | 0.362
UAACUUUAGAGGAGGAUCUGAUGGAUAUGGCAGUGGACGUGGAUUUGGGGAUGGCUAUAAUGGGUAUGGAGGAGGACCUGAAGGUGGCAA | 0.0947
UAACUUUACAGGAGGAUCUGAUGGAUAUGGCAGUGGACGUGGAUUUGGGGAUGGCUAUAAUGGGUAUGGAGGAGGACCUGGAGGUGGCAA | 0.523
CUCAAGUCCUGUGCUACACAUCGUAUGUACCGAAUCGGAGGAAAAAGGAAAGGAAAGUAUUAUGUUACGCCGUUCGGAUCUGCACUUCCA | -0.486
GCAUGAAGUAAAAACAAAUGGAAAUGCUUCGGAUAGUGGCAGGGGUGGGGGUUGCUAAGGAAAGGGUGGGAUGGGAGUGGGUAAAGAGUU | 1
UGGCCCUGGUGGCACGCGGGGAGGAAGAGGUGGCCUCAUGGAUCGUGGUGGUCCCGGUGGAAUGUUCAGAGGUGGCCGUGGUGGAGACAG | 0.663
GCAGGAAGUAAAAACAAAUGGAAAUGCUUCGGAUAGUGGCAGGGGUGGGGGUUGCUAAGGAAAGGGUGGGUUGGGAGUGGGUAAAGAGUU | 0.86
UGGCCCUGGUGGCAUGCGGGGAGGAAGAGGUGGCCUCAUGGAUCGUGGUGGUCCCGGUGGAAUGUUCAGAGGUGGCUGUGGUGGAGACAG | 0.545

Set 5 — technique: protein-binding microarray; molecule type: double-stranded DNA, one strand shown; matrix: in vitro; tested at: 250 nM; notes: 60-bp whole probe; added: salmon DNA 0.4 mg/ml; baseline: random background probes; direction: higher = stronger binding; all sequences stand within: GCCTAGCAC … GTCTTGATTCGCTTGACGCTGCTG
Target: Interferon regulatory factor 5, full length, phosphomimetic (IRF5, Homo sapiens, UniProt Q13568-2, residues 1-514, K96S/S451D/S453D/S456D/S462D)
Oligonucleotide | log fluorescence [z-score]
TCCATTTTCTGAATGCTACTGTGCTAG | 1.25
ATAGGTTTCGACACTGGGTTAGTGCTA | 5.03
GACGGTATCGACACTAGGGACGTGCTA | 1.57
CTCACCGCCAACCCAGTTCCGTGCTAG | -0.168
TTAGGTTCCGGGACTGGGTTAGTGCTA | -0.0539
GACGATTCCAGTCTCGAGACGTGCTAG | 0.367
TTAGAACTGAGGCTCGATTAGTGCTAG | -0.383
TTAGGATTCCTACTGCTTTAGTGCTAG | -0.064
TTAGATTTCGGGTTTCAATTAGTGCTA | 5.89
TTAGATTACAGTTCCGATTAGTGCTAG | 0.973
GACGGTATCATTCTCCTGACGTGCTAG | 1.07
TTAGATATCAGTCTAGATTAGTGCTAG | 1.43
GACGGTTTCGGCATCGGGACGTGCTAG | 5.91
TTAGGTTTCGACTATCGGTAAGTGCTA | 9.19
TCATGTCTTAGATTCCTACTGTGCTAG | 0.361
GACGGTGCCCTTTTCCTGACGTGCTAG | -0.22
TCAAGTGTGTGTCTGATACTGTGCTAG | -0.185
TTATGTATCGGTTTCGGTTAGTGCTAG | 11.5
TCAGATTTTGTCCTCCCACTGTGCTAG | 0.222

Some of these lines once more (set 4):
Oligonucleotide | log2 enrichment
UGGCCCUGGUGGCAUGAGGGGAGGAAGAGGUGGCCUCAUGGAUCGUGGUGGUCCCGGUGGAAUGUUCAGAGGUGGCCGUGGUGGAGACAG | 0.362
UGGCCCUGGUGGCACGCGGGGAGGAAGAGGUGGCCUCAUGGAUCGUGGUGGUCCCGGUGGAAUGUUCAGAGGUGGCCGUGGUGGAGACAG | 0.663
GCAGGAAGUAAAAACAAAUGGAAAUGCUUCGGAUAGUGGCAGGGGUGGGGGUUGCUAAGGAAAGGGUGGGUUGGGAGUGGGUAAAGAGUU | 0.86
UCAAGUCCUGUGCUACACAUCGUAUGUACCGAAUCGGGUUUGGGUUUGGGUGGGAAAGUAUUAUGUUACGCCGUUCGGAUCUGCACUUCC | 0.99
UAACUUUACAGGAGGAUCUGAUGGAUAUGGCAGUGGACGUGGAUUUGGGGAUGGCUAUAAUGGGUAUGGAGGAGGACCUGGAGGUGGCAA | 0.523
UGGCCCUGGUGGCAUGCGGGGAGGAAGAGGUGGCCUCAUGGAUCGUGGUGGUCCCGGUGGAAUGUUCAGAGGUGGCUGUGGUGGAGACAG | 0.545
GCAUGAAGUAAAAACAAAUGGAAAUGCUUCGGAUAGUGGCAGGGGUGGGGGUUGCUAAGGAAAGGGUGGGAUGGGAGUGGGUAAAGAGUU | 1
UAACUUUAGAGGAGGAUCUGAUGGAUAUGGCAGUGGACGUGGAUUUGGGGAUGGCUAUAAUGGGUAUGGAGGAGGACCUGAAGGUGGCAA | 0.0947
